Measurements collected from several papers.
± marks the error that the study gave.
Chain of UniProt P10721 (whole entry, unmodified, looked up): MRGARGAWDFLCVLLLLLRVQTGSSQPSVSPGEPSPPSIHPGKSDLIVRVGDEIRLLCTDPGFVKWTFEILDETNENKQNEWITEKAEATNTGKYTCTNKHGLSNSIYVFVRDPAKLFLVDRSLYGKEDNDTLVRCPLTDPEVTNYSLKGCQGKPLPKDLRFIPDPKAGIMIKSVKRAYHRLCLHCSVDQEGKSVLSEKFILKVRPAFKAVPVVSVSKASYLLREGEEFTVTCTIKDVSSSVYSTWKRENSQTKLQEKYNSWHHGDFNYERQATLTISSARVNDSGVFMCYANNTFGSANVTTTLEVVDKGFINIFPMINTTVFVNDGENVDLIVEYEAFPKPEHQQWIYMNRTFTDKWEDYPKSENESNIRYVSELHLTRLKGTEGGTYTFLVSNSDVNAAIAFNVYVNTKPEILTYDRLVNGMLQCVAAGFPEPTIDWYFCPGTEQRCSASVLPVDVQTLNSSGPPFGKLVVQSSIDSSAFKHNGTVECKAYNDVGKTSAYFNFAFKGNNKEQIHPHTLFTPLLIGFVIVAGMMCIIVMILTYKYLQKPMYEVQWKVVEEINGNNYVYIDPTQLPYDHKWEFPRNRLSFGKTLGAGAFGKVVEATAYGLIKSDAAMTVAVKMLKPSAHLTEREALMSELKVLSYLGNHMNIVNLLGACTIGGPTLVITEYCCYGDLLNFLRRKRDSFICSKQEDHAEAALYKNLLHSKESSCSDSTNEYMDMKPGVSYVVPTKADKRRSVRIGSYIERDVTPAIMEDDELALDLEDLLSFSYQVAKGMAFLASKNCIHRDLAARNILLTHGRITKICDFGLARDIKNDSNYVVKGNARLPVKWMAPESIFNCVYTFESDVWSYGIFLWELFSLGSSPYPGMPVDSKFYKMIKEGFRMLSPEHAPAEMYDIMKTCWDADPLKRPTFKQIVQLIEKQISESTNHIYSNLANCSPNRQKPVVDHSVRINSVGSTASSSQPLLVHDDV
Chain of UniProt Q9HC98 (whole entry, looked up): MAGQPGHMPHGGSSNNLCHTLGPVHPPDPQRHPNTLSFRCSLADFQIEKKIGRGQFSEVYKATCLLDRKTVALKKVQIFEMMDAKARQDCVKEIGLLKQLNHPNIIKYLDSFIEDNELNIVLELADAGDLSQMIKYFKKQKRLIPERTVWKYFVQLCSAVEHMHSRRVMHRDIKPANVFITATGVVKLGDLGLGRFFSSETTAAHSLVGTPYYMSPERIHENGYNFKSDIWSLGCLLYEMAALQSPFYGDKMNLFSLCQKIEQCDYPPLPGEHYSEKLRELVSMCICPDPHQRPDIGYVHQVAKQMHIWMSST
Chain of UniProt Q9NQR1 (whole entry, looked up): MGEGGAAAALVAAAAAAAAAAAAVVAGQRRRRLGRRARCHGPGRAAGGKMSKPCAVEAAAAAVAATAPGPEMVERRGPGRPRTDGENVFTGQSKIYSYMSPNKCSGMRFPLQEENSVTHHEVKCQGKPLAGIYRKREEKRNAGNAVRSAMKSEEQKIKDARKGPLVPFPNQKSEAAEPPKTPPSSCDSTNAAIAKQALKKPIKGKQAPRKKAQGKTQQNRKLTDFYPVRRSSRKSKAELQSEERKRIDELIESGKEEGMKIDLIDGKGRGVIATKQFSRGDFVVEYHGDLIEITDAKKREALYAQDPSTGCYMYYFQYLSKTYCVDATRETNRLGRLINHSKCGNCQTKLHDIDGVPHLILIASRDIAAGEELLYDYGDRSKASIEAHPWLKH
Chain of UniProt P53778 (whole entry, looked up): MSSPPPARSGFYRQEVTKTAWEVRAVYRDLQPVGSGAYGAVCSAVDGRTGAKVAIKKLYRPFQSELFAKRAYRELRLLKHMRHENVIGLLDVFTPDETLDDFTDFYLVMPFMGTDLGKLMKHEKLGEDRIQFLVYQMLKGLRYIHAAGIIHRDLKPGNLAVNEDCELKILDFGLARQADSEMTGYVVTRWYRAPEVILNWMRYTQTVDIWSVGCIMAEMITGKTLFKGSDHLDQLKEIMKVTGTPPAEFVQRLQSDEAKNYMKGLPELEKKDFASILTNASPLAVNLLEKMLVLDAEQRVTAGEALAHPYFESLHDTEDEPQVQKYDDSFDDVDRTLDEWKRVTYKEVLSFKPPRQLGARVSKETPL
Chain of UniProt P42338 (whole entry, looked up): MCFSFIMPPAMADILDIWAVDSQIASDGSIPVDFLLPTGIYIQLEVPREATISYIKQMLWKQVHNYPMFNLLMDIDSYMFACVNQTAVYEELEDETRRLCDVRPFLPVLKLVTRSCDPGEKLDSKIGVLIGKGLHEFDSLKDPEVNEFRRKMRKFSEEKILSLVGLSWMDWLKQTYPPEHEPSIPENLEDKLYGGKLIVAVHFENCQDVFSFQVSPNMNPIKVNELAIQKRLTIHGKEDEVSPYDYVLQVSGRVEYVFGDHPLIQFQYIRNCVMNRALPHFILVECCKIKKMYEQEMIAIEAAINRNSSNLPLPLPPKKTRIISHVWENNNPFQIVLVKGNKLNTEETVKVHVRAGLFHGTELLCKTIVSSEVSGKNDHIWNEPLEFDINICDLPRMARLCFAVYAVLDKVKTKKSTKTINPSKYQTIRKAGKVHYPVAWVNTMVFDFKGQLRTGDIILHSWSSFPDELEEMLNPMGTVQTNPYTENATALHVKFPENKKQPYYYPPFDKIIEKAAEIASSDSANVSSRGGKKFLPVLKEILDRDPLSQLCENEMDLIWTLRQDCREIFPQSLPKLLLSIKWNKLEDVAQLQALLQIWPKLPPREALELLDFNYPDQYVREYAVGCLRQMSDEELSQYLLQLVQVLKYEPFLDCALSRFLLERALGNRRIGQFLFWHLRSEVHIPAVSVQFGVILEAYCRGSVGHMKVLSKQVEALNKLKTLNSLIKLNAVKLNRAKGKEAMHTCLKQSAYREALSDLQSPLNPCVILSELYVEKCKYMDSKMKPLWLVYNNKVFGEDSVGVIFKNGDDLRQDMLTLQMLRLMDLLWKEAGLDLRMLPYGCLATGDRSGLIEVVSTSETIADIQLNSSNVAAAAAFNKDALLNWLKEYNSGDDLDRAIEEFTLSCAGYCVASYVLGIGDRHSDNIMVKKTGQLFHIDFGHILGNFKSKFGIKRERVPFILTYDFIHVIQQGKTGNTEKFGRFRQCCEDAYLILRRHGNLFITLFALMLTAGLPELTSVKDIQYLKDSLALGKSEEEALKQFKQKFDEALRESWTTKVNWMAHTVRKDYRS
Chain of UniProt Q9UL54 (whole entry, looked up): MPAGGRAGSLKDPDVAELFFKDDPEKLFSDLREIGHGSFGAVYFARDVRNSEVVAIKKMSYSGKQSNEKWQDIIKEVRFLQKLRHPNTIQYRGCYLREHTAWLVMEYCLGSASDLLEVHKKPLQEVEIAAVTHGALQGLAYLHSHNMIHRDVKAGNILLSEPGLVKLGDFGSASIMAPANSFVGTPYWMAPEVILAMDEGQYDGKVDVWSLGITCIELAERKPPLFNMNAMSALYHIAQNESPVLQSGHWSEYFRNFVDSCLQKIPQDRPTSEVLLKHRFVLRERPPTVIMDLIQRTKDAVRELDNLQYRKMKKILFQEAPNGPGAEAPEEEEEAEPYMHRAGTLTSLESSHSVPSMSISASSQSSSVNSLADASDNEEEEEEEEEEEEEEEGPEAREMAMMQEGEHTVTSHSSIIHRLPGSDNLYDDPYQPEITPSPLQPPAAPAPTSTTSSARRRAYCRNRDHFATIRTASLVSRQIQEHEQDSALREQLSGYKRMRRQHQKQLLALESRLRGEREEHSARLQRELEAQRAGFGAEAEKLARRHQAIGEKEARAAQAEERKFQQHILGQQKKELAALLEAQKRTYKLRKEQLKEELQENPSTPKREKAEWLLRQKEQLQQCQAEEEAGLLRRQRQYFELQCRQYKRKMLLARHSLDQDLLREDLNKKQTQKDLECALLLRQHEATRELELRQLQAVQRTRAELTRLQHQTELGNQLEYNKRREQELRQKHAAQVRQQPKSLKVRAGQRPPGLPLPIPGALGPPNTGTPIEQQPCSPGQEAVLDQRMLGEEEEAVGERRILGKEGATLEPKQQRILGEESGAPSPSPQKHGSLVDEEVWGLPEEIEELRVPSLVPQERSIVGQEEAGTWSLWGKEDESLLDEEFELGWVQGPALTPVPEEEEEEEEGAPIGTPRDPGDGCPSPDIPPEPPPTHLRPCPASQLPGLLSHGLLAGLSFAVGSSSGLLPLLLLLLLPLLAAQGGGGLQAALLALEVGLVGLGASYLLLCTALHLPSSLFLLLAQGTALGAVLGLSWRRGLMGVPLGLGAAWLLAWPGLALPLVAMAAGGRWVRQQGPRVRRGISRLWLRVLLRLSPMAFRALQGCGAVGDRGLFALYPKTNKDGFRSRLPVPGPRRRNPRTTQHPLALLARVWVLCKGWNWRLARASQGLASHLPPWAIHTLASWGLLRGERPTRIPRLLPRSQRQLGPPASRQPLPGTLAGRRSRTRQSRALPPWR
Chain of UniProt P08588 (whole entry, looked up): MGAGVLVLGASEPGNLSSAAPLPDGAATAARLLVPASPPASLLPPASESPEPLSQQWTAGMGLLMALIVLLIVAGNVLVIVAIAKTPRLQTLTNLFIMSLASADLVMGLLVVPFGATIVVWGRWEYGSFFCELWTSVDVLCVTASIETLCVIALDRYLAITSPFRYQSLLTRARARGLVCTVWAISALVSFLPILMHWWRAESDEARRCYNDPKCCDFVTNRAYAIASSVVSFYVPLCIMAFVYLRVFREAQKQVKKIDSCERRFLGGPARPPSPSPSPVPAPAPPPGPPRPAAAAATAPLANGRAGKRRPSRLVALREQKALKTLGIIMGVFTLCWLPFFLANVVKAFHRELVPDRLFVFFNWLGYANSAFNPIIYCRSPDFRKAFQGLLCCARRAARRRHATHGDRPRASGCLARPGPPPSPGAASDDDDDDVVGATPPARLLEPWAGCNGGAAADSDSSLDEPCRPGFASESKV

SMILES | tested on | assay | system | setting | scale | measurement | value
O=C1NC(=O)c2c1c1cc(F)c[n+]3c1c1c2c2cc(O)ccc2[n]1[Ru-4]312([N]=C=S)[S+]3CC[S+]1CC[S+]2CC3 (stereo not shown) | MAPK12 (Homo sapiens, UniProt P53778) | enzyme activity |  | 100 nM, human enzyme, together with: 10 µM ATP | baseline: untreated | remaining activity | 102%
C/C(=N\OCCCN1CCCCC1)c1ccc(C(F)(F)F)cc1 | Androgen receptor (AR, Homo sapiens, UniProt P10275) | reporter gene, antagonist, luciferase reporter |  | 10 µM |  | inhibition | -4.15%
CCC1CC(c2ccc(C(=O)O)cc2C)=NN1c1ccc(C#N)c(Cl)c1 (stereo not shown) | KMT5A (Homo sapiens, UniProt Q9NQR1) | enzyme activity, inhibitor |  | 10 µM |  | inhibition | 9%
COc1ccccc1-c1n[nH]c2nc(N[C@H]3CC[C@H](NS(=O)(=O)CC(C)C)CC3)ncc12 |  | bead binding, competition bead pull-down, measured: LINJ.09.0270 | Leishmania donovani extract | 10 µM | baseline: vehicle | relative abundance | 0.46
Cc1sc2c(c1C)C(c1ccc(Cl)cc1)=NC(CC(=O)OC(C)(C)C)c1nnc(C)n1-2 (stereo not shown) | ADRB1 (Homo sapiens, UniProt P08588) | ligand displacement, radioligand |  | 1 µM |  | remaining binding | 99.2%
CN[C@@H]1[C@H](O)[C@H](NC)[C@H]2O[C@]3(O)[C@H](O[C@@H]2[C@H]1O)O[C@H](C)C[C@H]3NC(=O)Cc1cc(Cl)ccn1 | HTR1A (Homo sapiens, UniProt P08908) | ligand displacement, radioligand |  | 10 µM |  | inhibition | 1%
C[C@H](NCc1ccc(-c2ccc(C(F)(F)F)cc2)cc1)C(N)=O | KIT (Homo sapiens, UniProt P10721, D816V) | cell-free assay, competition with immobilised ligand |  | 1 µM |  | inhibition | 8%
CN[C@@H]1[C@H](O)[C@H](NC)[C@H]2O[C@]3(O)[C@H](O[C@@H]2[C@H]1O)O[C@H](C)C[C@H]3NC(=O)Cc1ccc(Cl)cn1 | PTGER4 (Homo sapiens, UniProt P35408) | ligand displacement, radioligand |  | 10 µM |  | inhibition | -9%
Cc1ccccc1C=Cc1nnc([C@H]2OCC[C@H]2Cn2ccnc2)o1 | Cholinesterase (BCHE, Homo sapiens, UniProt P06276) | enzyme activity, inhibitor, Ellman |  | 10 µM |  | inhibition | 2.9%
CC[C@H](C)[C@H](NC(=O)[C@H](CO)NC(=O)[C@H](Cc1ccc(O)cc1)NC(=O)[C@H](Cc1ccc(O)cc1)NC(=O)[C@H](CC(N)=O)NC(=O)CNC(=O)[C@H](CO)NC(=O)[C@H](Cc1ccc(O)cc1)NC(=O)[C@H](CO)NC(=O)[C@H](CO)NC(=O)[C@H](CC(N)=O)NC(=O)COCCOCCNC(=O)CN1CCN(CC(=O)O)CCN(CC(=O)O)CCN(CC(=O)O)CC1)C(=O)N[C@@H](CC(C)C)C(N)=O [copper-64 labelled] |  | dynamic PET | KPC mouse Ptf1a-CreER tdTomato, metastases | intravenous, 4.6 MBq/mouse, 17.5 min, 84 d after tamoxifen |  | tissue uptake | 14 %ID/mL
CN(C)[C@H]1C[C@@]23CC[C@@]4(O2)C(=CC[C@]2(C)[C@@H](c5ccc6ccncc6c5)CC[C@H]24)C=C3[C@@H](O)[C@@H]1O | STE20-related kinase adapter protein beta (Homo sapiens, UniProt Q9C0K7) | ATP probe labelling, inhibitor, KiNativ profiling |  | 0.1 µM |  | inhibition | 4.2%
Cc1ccc2c(n1)c(-c1cccc(S(C)(=O)=O)c1)c(C)n2C/C(F)=C/CN | CXCR2 (Homo sapiens, UniProt P25025) | ligand displacement, radioligand |  | 10 µM |  | inhibition | 3%
Cc1cc(-c2ccc3ccccc3c2)nnc1NCCN1CCN(C)CC1 | SLC22A1 (Homo sapiens, UniProt O15245) | transport |  | concentration not given |  | inhibition | negative
CCN(N=Cc1cnc2ccc(Br)cn12)S(=O)(=O)c1cc([N+](=O)[O-])ccc1C | PIK3CA (Homo sapiens, UniProt P42336, I771A) | enzyme activity |  | 60 nM |  | inhibition | 30%
COc1ccccc1-c1n[nH]c2nc(NC3CCN(C(=O)Cc4ccc(F)cc4F)CC3)ncc12 |  | bead binding, competition bead pull-down, measured: LINJ.23.0860 | Leishmania donovani extract | 10 µM | baseline: vehicle | relative abundance | 0.74
O=C1NC2(CC2)COc2ncc(F)cc2[C@H]2COCCN2c2ccn3ncc1c3n2 |  |  | Sprague-Dawley rat, female, serum | oral, 5 mg/kg/day, end of treatment, 4-week subacute toxicity |  | serum total bilirubin | 0.8 ± 0.3 µmol/L
CC(C)[C@H]1NC(=O)C[C@H]2/C=C/CCSSC[C@@H](NC1=O)C(=O)N[C@H](Cc1cccc3ccccc13)C(=O)NCC(=O)O2 | FRK (Homo sapiens, UniProt P42685) | enzyme activity, inhibitor |  | 10 µM |  | inhibition | -3.7%
C=CC(=O)Nc1cc(-c2nn(C3CCC(N4CCN(C(C)=O)CC4)CC3)c3ncnc(N)c23)ccc1Oc1ccccc1 (stereo not shown) | TAOK2 (Homo sapiens, UniProt Q9UL54) | inhibitor, KiNativ profiling | biochemical | 2 µM |  | inhibition | 1.8%
CN(/N=C/c1ccccc1C(=O)O)c1nc(-c2ccccc2Cl)cs1 | ABL2 (Homo sapiens, UniProt P42684) | enzyme activity, inhibitor |  | 1 µM |  | inhibition | -14.2%
CC(C)(C)C(=O)OCOP(=O)(OCOC(=O)C(C)(C)C)C1CCCN(O)C1=O (stereo not shown) | SF-539 |  |  |  |  | log GI50 | -5.82 log M
CC[C@H](C)[C@H](NC(=O)[C@H](CCCCN)NC(=O)CNC(=O)[C@H](CC(C)C)NC(=O)[C@H](Cc1ccccc1)NC(=O)[C@H](CCCCN)NC(=O)[C@H](CO)NC(=O)[C@H](Cc1ccccc1)NC(=O)[C@H](Cc1c[nH]c2ccccc12)NC(=O)[C@H](CCC(N)=O)NC(=O)[C@@H](NC(=O)[C@H](Cc1ccccc1)NC(=O)CCCCCNC(=O)CN1CCN(CC(=O)O)CCN(CC(=O)O)CCN(CC(=O)O)CC1)C(C)C)C(=O)N[C@@H](CCC(=O)O)C(=O)N1CCC[C@H]1C(=O)N[C@H](CC(=O)O)C(=O)N[C@H](C(=O)N[C@@H](CO)C(=O)N[C@@H](CCC(N)=O)C(=O)N[C@H](C(=O)N[C@@H](CCC(N)=O)C(=O)N[C@@H](CC(=O)O)C(=O)N1CCC[C@H]1C(=O)N[C@@H](CC(N)=O)C(=O)N[C@@H](CC(=O)O)C(=O)N[C@@H](CCC(N)=O)C(=O)N[C@@H](Cc1ccc(O)cc1)C(=O)N[C@@H](CCC(=O)O)C(=O)N1CCC[C@H]1C(=O)N[C@@H](Cc1ccccc1)C(=O)O)C(C)C)C(C)C [copper-64 labelled] |  |  | C57BL/6 mice, male, MC-38 tumour-bearing, muscle | 2 h, vehicle-treated |  | tissue uptake | 0.31 ± 0.06 %ID/g
CS(C)(=O)=Nc1ccc(-c2ccc(-c3nc4cc(O[C@@H]5CO[C@H]6[C@@H]5OC[C@H]6O)[nH]c4cc3F)cc2)cc1 | NEK6 (Homo sapiens, UniProt Q9HC98) | enzyme activity, inhibitor |  | 10 µM |  | inhibition | 3%
O=C(O)c1ccccc1/C=N/Nc1nc(-c2ccccc2Cl)cs1 | PIK3CB (Homo sapiens, UniProt P42338) | enzyme activity, inhibitor |  | 1 µM |  | inhibition | 14%
N[C@H](C(=O)N1CCCC1)C1CCN(c2nccc3c(-c4ncc(Cl)cc4Cl)cccc23)CC1 | GABA-A receptor benzodiazepine site | binding, radioligand binding |  | 10 µM |  | inhibition | -13%
COc1ccc(F)cc1S(=O)(=O)Nc1cnc2c(c1)C(=O)NCCO2 | CCKBR (Homo sapiens, UniProt P32239) | ligand displacement, radioligand |  | 10 µM |  | inhibition | 7%
